Measured values pooled from the literature.
Compare with care: the assays were run in different laboratories. pEC50: −log10 of the molar value.
Cell line: HepG2

O=C1/C(=C/c2ccc3c(c2)OCCO3)SC(=S)N1[C@@H]1O[C@H](CO)[C@@H](O)[C@H](O)[C@H]1O
mRNA fold change (item: P53; IC50, 48 h; reference: untreated): 9.53 fold

CC[C@@]1(O)C(=O)OCc2c1cc1n(c2=O)Cc2cc3cc(OC(=O)CCCC(=O)NCC(=O)N[C@@H](Cc4ccccc4)C(=O)N[C@@H](Cc4ccccc4)C(=O)N[C@@H](Cc4ccc(OP(=O)(O)O)cc4)C(=O)NCCSSCCNC(=O)CCC(=O)N[C@@H](CCC(=O)O)C(=O)N[C@@H](CCCNC(=N)N)C(=O)NCC(=O)N[C@@H](CC(=O)O)C(=O)O)ccc3nc2-1
late apoptotic cells (annexin V/PI flow cytometry; 200 nM, 48 h): 75.3%

C[C@@H](O)[C@@H]1NC(=O)[C@H](CCCCN)NC(=O)CCC(=O)NCCCC[C@@H](C(=O)NCC(=O)NCC(=O)N[C@@H](Cc2ccc(O)cc2)C(=O)NCC(=O)N[C@@H](CCCNC(=N)N)C(=O)N[C@@H](CCCCN)C(=O)N[C@@H](CCCCN)C(=O)N[C@@H](CCCNC(=N)N)C(=O)N[C@@H](CCCNC(=N)N)C(=O)N[C@@H](CCC(N)=O)C(=O)N[C@@H](CCCNC(=N)N)C(=O)N[C@@H](CCCNC(=N)N)C(=O)N[C@@H](CCCNC(=N)N)C(N)=O)NC(=O)[C@H](CCCCN)NC(=O)[C@H](CCC(=O)O)NC(=O)[C@H](CC(=O)O)NC(=O)CNC1=O
caspase-3 positive cells (apoptosis, flow cytometry; 40 µM, 16 h): 0.9%

CC(=O)N[C@H](C(=O)N[C@@H](C)C(=O)N[C@@H](CCC(N)=O)C(=O)N[C@@H](CCC(N)=O)C(=O)N[C@@H](C)C(=O)N[C@@H](C)C(=O)N[C@@H](CC(N)=O)C(=O)N[C@H](C(=O)N[C@@H](C)C(=O)N[C@@H](C)C(=O)N[C@H](C(=O)N[C@@H](CC(C)C)C(=O)N[C@@H](CCCCN)C(=O)N[C@@H](CC(N)=O)C(=O)N[C@@H](CO)C(=O)N[C@@H](CCCNC(=N)N)C(=O)N[C@@H](CO)C(=O)N[C@@H](CC(C)C)C(=O)NCC(=O)N[C@@H](CCC(=O)O)C(=O)N[C@@H](CC(N)=O)C(=O)N[C@@H](CC(=O)O)C(=O)N[C@@H](CC(=O)O)C(=O)NCC(=O)N[C@@H](CC(N)=O)C(=O)N[C@@H](CC(N)=O)C(=O)N[C@@H](CCC(=O)O)C(=O)N[C@@H](CC(=O)O)C(=O)N[C@@H](CC(N)=O)C(=O)N[C@@H](CCC(=O)O)C(=O)N[C@@H](CCCCN)C(=O)N[C@@H](CC(C)C)C(=O)N[C@@H](CCCNC(=N)N)C(N)=O)[C@@H](C)O)C(C)C)C(C)C
spheroid formation (320 µg/mL, 10 days; reference: control): decreased

CCCCCCCC(=O)NC(C)(C)C(=O)NCC(=O)N[C@@H](CC(C)C)C(=O)NC(C)(C)C(=O)NCC(=O)N[C@H](C(=O)N[C@H](CO)CC(C)C)[C@@H](C)CC
pEC50 (cytotoxicity, MTS; 48 h): < 4.60

O=C1C=CC(=O)c2c(O)ccc(O)c21
selectivity ratio (cytotoxicity, MTT; reference: IC50 MRC5 over IC50 HepG2): 4.69

O=C1CC2(C1)C(=O)[O][Pt]1([Cl])([O]C(=O)C(Cl)Cl)([NH][C@@H]3CCCC[C@H]3[NH]1)[O]C2=O
JC-1 red/green fluorescence ratio (mitochondrial membrane potential; 30 µM, 48 h): 0.86

CCCCCCCC(=O)NC(C)(C)C(=O)NCC(=O)N[C@@H](CC(C)C)C(=O)NC(C)(C)C(=O)NCC(=O)NCC(=O)N[C@H](C(=O)NC(C)(C)C(=O)NCC(=O)N[C@@H](CC(C)C)C(=O)N[C@H](CO)CC(C)C)C(C)C
pEC50 (cytotoxicity, MTS; 48 h): < 4.60

CC(C)C[C@@H](NC(=O)CCNc1ccc([N+](=O)[O-])c2nonc12)C(=O)N[C@H](CC(C)C)C(=O)N[C@H](CC(C)C)C(=O)N[C@H](CC(C)C)C(=O)N[C@H](Cc1ccc(OP(=O)(O)O)cc1)C(=O)O
viability (MTT; 200 µM, 24 h): > 60%

CC(=O)NC(C)(C)C(=O)NCC(=O)N[C@@H](C)C(=O)NC(C)(C)C(=O)NC(C)(C)C(=O)N[C@@H](CCC(N)=O)C(=O)NC(C)(C)C(=O)N[C@H](C(=O)NC(C)(C)C(=O)NCC(=O)N[C@@H](CC(C)C)C(=O)NC(C)(C)C(=O)N1CCC[C@H]1C(=O)N[C@@H](CC(C)C)C(=O)NC(C)(C)C(=O)NC(C)(C)C(=O)N[C@@H](CCC(=O)O)C(=O)N[C@H](CO)CC(C)C)C(C)C
pEC50 (cytotoxicity, MTS; 48 h): < 4.60

CC[C@@]1(O)C(=O)OCc2c1cc1n(c2=O)Cc2cc3cc(OC(=O)CCCC(=O)NCC(=O)N[C@@H](Cc4ccccc4)C(=O)N[C@@H](Cc4ccccc4)C(=O)N[C@@H](Cc4ccc(O)cc4)C(=O)NCCS)ccc3nc2-1
apoptotic cells (annexin V/PI flow cytometry; 200 nM, 48 h): ~30%

CC[C@H](C)[C@H](NC(=O)[C@H](CC(C)C)NC(=O)[C@H](CCC(N)=O)NC(=O)[C@@](C)(CC)NC(C)=O)C(=O)NC(C)(C)C(=O)N1CCC[C@H]1C(=O)N[C@](C)(CC)C(=O)N[C@@H](CC(C)C)C(=O)NC(C)(C)C(=O)N1CCC[C@H]1C(=O)N[C@H](CO)CC(C)C
pEC50 (cytotoxicity, MTS; 48 h): < 4.60

C[C@@H](O)[C@@H]1NC(=O)[C@H](CCCCN)NC(=O)CCCC(=O)NCCCC[C@@H](C(=O)NCC(=O)NCC(=O)N[C@@H](Cc2ccc(O)cc2)C(=O)NCC(=O)N[C@@H](CCCNC(=N)N)C(=O)N[C@@H](CCCCN)C(=O)N[C@@H](CCCCN)C(=O)N[C@@H](CCCNC(=N)N)C(=O)N[C@@H](CCCNC(=N)N)C(=O)N[C@@H](CCC(N)=O)C(=O)N[C@@H](CCCNC(=N)N)C(=O)N[C@@H](CCCNC(=N)N)C(=O)N[C@@H](CCCNC(=N)N)C(N)=O)NC(=O)[C@H](CCCCN)NC(=O)[C@H](CCC(=O)O)NC(=O)[C@H](CC(=O)O)NC(=O)CNC1=O
caspase-3 positive cells (apoptosis, flow cytometry; 40 µM, 16 h): 0.96%
